Results collected from several papers.
Numbered parts are unrelated; each lists some results of a single study.

Block 1
Cell line: HEK-293T/ACE2
Concentration: 10 µM
Time: 16 h
Baseline: vehicle
Endpoint: viability
SMILES = CCCCOc1ccc(C(=O)CCN2CCCCC2)cc1; value = 102%
SMILES = CC[C@H]1OC(=O)[C@H](C)[C@@H](O[C@H]2C[C@@](C)(OC)[C@@H](O)[C@H](C)O2)[C@H](C)[C@@H](O[C@@H]2O[C@H](C)C[C@H](N(C)C)[C@H]2O)[C@](C)(OC)C[C@@H](C)C(=O)[C@H](C)[C@@H](O)[C@]1(C)O; value = 101%
SMILES = C[C@]12CCC(=O)C=C1CC[C@@H]1[C@@H]2CC[C@@]2(C)[C@H]1CC[C@]2(C)O; value = 98.8%

Block 2
Target: TAR DNA-binding protein 43, full length, His tag (TARDBP, Homo sapiens, UniProt Q13148, residues 1-414)
Technique: RNA Bind-n-Seq
Form: RNA
Sample: in vitro
Concentration: 20 nM
Notes: 6-mer, flanks averaged, single round
Together with: 150 mM KCl
Baseline: input library
Direction: higher = stronger binding
Endpoint: 6-mer enrichment (R)
Oligonucleotide = GGCCCU; value = 0.888
Oligonucleotide = CAAGAU; value = 0.619
Oligonucleotide = AGCUCA; value = 0.624
Oligonucleotide = UUACAG; value = 0.637
Oligonucleotide = GCACGA; value = 1.01
Oligonucleotide = AUUAUA; value = 0.666
Oligonucleotide = CUAGCC; value = 0.641
Oligonucleotide = CAUAAA; value = 0.628

Block 3
Target: Hepatocyte nuclear factor 3-alpha (Foxa1, Mus musculus, UniProt P35582, residues 1-468, full length assumed)
Sequence of UniProt P35582 (whole entry, looked up): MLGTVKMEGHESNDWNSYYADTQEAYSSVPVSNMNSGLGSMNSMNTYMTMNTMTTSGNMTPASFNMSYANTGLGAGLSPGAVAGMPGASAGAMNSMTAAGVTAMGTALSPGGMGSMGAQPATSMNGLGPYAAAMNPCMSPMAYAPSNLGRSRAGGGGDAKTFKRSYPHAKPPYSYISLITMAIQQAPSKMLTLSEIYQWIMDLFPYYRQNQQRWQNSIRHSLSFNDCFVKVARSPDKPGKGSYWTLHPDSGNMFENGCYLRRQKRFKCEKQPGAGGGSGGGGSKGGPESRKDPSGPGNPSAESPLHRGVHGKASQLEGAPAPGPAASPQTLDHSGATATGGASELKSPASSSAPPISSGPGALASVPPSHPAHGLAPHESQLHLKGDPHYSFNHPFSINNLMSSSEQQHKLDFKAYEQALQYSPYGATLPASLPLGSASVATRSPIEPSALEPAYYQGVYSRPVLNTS
Technique: EMSA with sequencing
Form: double-stranded DNA, one strand shown
Sample: in vitro
Concentration: 10 and 20 nM
Notes: whole designed probe, mean of two concentrations, ends assumed
Baseline: negative control set to 0
Direction: higher = stronger binding
Endpoint: normalised bound fraction
Oligonucleotide = GTGAGCGGTGCCCATTGATGGGGAACACTGAACTTCACTCCTGCTAGGGAGCTCTGGGAGCCAGTGTAGAATTGCATCTCCAAGCTGTCCCACCTGAGAGGTGAGGAAGCTCAAGTACTAAATTACTGATTCAGTATTGTGCTGGCAACGGGTTCTCCAGTAGGAGGTCAAGGGAGCCCTGATTTGTAGCATTTGCCAATGACCATGGTGTAAATACTCTTTCACTGGGATCGTGGGGAC; value = -0.0326 ratio
Oligonucleotide = GTGAGCGGTGCCCATTGATGGGGAACGTAGCCTTTTTCAGATTTCATCAAATATGGTGTTAGGGGGCCCTCATTTGTCCACAAAAAATATGGTGACAAGGGATGATGACGTGAGTCAGAGTAAACACCATTTACTCACTTTGCGTCACTGTTTATTAGAAGGGCTGTTCGGACTTTCTAGTTGCCAAACTGGACCGTGTATGCTCTCTGAAGAGCGGGCTTTCACTGGGATCGTGGGGAC; value = 0.19 ratio
Oligonucleotide = GTGAGCGGTGCCCATTGATGGGGAACAAATAAGGCGCGCGAGAGAGGCCAACACGTCGCGGAGGGAGATGTTGTTATTTTTTGCTGTTGTGCGTCCCTGAGCTCACATCCACCTGCTGGGTAAACAACCGGGCTCCCAGAAAAAAAAAATCGCAATTGCCAAAGAATGGGGGGGGGGGTTGGGGGGAGGGATCCAGGGAGGGGGAAGTGAGGGGCGTCCTTTCACTGGGATCGTGGGGAC; value = 0.403 ratio
Oligonucleotide = GTGAGCGGTGCCCATTGATGGGGAACATCTTCCCCCTCTTCCTTGCCCCACCAGCTCACCTACGGGGGTTATTTGCACAAAGGAAAATAAATAAAGCCGGCATTCGTTAACCCTCTTCTGGCGCAAACTGCTGTTTGCTCTGCATCTAACATGGTCCTTACGCGAGGCGTGGCTCCGGGAGAGCAAAGCACCGTGTCAGGCGCATGATCCGGGGTGGCCTTTCACTGGGATCGTGGGGAC; value = 0.385 ratio

Block 4
Target: Replicase polyprotein 1ab, nsp13 helicase (rep, Severe acute respiratory syndrome coronavirus 2, UniProt P0DTD1)
Action: inhibitor
Concentration: 20 µM
Endpoint: inhibition
Compound = COC(=O)CN1CN(c2ccccc2)C2(CCN(Cc3cccc4ccccc34)CC2)C1=O; value = 3.82%
Compound = Nc1nc(=O)[nH]cc1F; value = -2.21%
Compound = O=C(O)c1ccc(-c2ccc3cc(O)c(C45CC6CC(CC(C6)C4)C5)cc3c2)cc1; value = 5.88%
Compound = CN=C(NS(=O)(=O)c1ccc(Cl)cc1)N1C[C@H](c2ccccc2)C(c2ccc(Cl)cc2)=N1 (racemic); value = 5.65%
Compound = C/C(=C\C(N)C(=O)O)CP(=O)(O)O (stereo not shown); value = 3.51%
Compound = CN1CC(=O)N=C1NC(=O)Nc1cccc(Cl)c1; value = -5.99%
Compound = C#C[C@]1(O)CC[C@H]2[C@@H]3CCC4=CC(=O)CC[C@@H]4[C@H]3C(=C)C[C@@]21CC; value = -0.97%
Compound = COc1nc(C)nc(Cl)c1NC1=NCCN1; value = 3.3%
Compound = COc1nc(N)nc2c1ncn2[C@@H]1O[C@H](CO)[C@@H](O)[C@@H]1O; value = 3.88%
Compound = COc1cc2nc(N(C)CCCNC(=O)C3CCCO3)nc(N)c2cc1OC (stereo not shown); value = 7.81%
Compound = Cc1ccnc2c1CCCC2C(N)=S (stereo not shown); value = 6.69%
Compound = Cc1nc(N)sc1CCN; value = -1.76%
Compound = C#Cc1cncc([C@@H]2CCCN2C)c1; value = -1.88%
Compound = O=C(O)c1cc(C(=O)O)c(C(=O)N(Cc2cccc(Oc3ccccc3)c2)[C@H]2CCCc3ccccc32)cc1C(=O)O; value = 8.44%
Compound = C[C@H](Cn1cnc2c(N)ncnc21)OCP(=O)(O)O; value = 2.01%
Compound = COc1cc2c(cc1OC)CN(CCc1ccc(NC(=O)c3cccc4c(=O)c5cccc(OC)c5[nH]c34)cc1)CC2; value = 28.4%
Compound = CO[C@]12C[C@@H](COC(=O)c3cncc(Br)c3)CN(C)[C@@H]1Cc1cn(C)c3cccc2c13; value = 3.81%
Compound = N[C@@H](Cc1ccc(O)cc1)C(=O)NCC(=O)NCC(=O)O; value = -1.09%
Compound = CCc1noc(C)c1-c1[nH]c2ccccc2c1C(O)CN(C)C (stereo not shown); value = -0.62%
Compound = Cc1c(C)c2c(c(C)c1OC(=O)CCC(=O)O)CC[C@@](C)(CCC[C@H](C)CCC[C@H](C)CCCC(C)C)O2; value = 1.93%
Compound = C1CCc2nnnn2CC1; value = 2.52%
Compound = C/C=C/c1cc(OC)c(OC)cc1OC; value = 9.94%
Compound = CCCCC[C@H](O)/C=C/[C@H]1[C@H](O)CC(=O)[C@@H]1CCCCCCC(=O)O; value = -4.31%
Compound = CCC(=O)OCC(=O)[C@@]1(OC(=O)CC)[C@H](C)C[C@H]2[C@H]3[C@H]([C@@H](O)C[C@@]21C)[C@@]1(C)C=CC(=O)C=C1C[C@H]3Cl; value = 3.23%
Compound = CO[C@H]1C[C@@H]2CC[C@@H](C)[C@@](O)(O2)C(=O)C(=O)N2CCCC[C@H]2C(=O)O[C@H]([C@H](C)C[C@@H]2CC[C@H](n3cnnn3)[C@H](OC)C2)CC(=O)[C@H](C)/C=C(\C)[C@@H](O)[C@@H](OC)C(=O)[C@H](C)C[C@H](C)/C=C/C=C/C=C/1C; value = 5.28%

Block 5
Target: Replicase polyprotein 1ab, main protease (rep, Severe acute respiratory syndrome coronavirus 2, UniProt P0DTD1)
Effect on: enzyme activity
Action: inhibitor
Concentration: 20 µM
Notes: hit confirmation, with DTT
Endpoint: inhibition
Structure (SMILES) = C=CC(=O)c1ccc2ccccc2c1; value = -11.8%
Structure (SMILES) = CCN(CC)C(=S)SSC(=S)N(CC)CC; value = 36.1%
Structure (SMILES) = CC(Cc1ccc(O)c(O)c1)C(C)Cc1ccc(O)c(O)c1 (stereo not shown); value = 1.3%
Structure (SMILES) = CN1CC[C@@]2(C)c3cc(O)ccc3N(C)[C@@H]12; value = -0.64%

Block 6
Target: RNA binding protein fox-1 homolog 2, RRM domain, GST-SBP tag (RBFOX2, Homo sapiens, UniProt O43251-10, residues 100-194)
Technique: RNA Bind-n-Seq
Form: RNA
Sample: in vitro
Concentration: 365 nM
Notes: natural RNA segment, single round, ends assumed
Baseline: no-protein control
Direction: higher = stronger binding
Endpoint: RBNS enrichment (R)
Target sequence (chain): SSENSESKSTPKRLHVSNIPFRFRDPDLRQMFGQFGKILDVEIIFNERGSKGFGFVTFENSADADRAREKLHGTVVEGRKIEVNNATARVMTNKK
Oligonucleotide = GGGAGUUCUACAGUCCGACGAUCUGUAACAUUGGCCUUUUCAUGGCUCCACACUGGGUGGAACCAUAUUCUCUUAGAUCACAUUUAGUAGCAUAACUGUAGGGACUAUUAGAGAUGGCAUCUCAUCGAUGAGAUGGAAUUCUCGGGUGCCAA; value = 0.433
Oligonucleotide = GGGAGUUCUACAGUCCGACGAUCUUCCUCUUCCUUCUCUACUCAUGCCAGAUUUUGGGAUUACAAAUAGAAGCUUCUUGCUCCUGUUUAACUCCCUAGUUACCCACCCUAAUUUGCCCUUCAGGACCCUUCUAUGGAAUUCUCGGGUGCCAA; value = 0.778
Oligonucleotide = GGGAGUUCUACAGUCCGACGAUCCCAUUCAUUGGCUAAUCCAUACAGCAAAUAUUUGAGUGUUUGUGAUAUGGCAGUAAAAAUGUGAUUACUUUGUAUGUACAUUAACCAAAACCAGUGAAGUUUGAUGGACUUGGAAUUCUCGGGUGCCAA; value = 0.294
Oligonucleotide = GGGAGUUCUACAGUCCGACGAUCGUUUGGGGCAGUGGGGAGCAAACCUAGAUAAGGACCUGUUUGGGGCAGCAGGGAGCAAAAUCUCCUUUAACAACCAAGCAGUUCCUCAUUCACAUCAACAGAGCGAGGCUUGGAAUUCUCGGGUGCCAA; value = 0.245
Oligonucleotide = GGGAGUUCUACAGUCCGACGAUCUACAACUUCAAGUGCAUGCUCUCUGCAGCCAGCCCAGCCCAGCUGGUGGGAAGCGUCUGUCCGUUUACUCCAAGGUGGGGUCUUUGUGAGAGUGAGCUGUAGGUGUGCGGUGGAAUUCUCGGGUGCCAA; value = 7.03
Oligonucleotide = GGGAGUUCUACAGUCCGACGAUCCUAGAAUGUAAAUGAAGCUUGCUUGGAAGGGGAAAACUUUAAAUAAAACUUUAUGUAUAAAUUCAACGUCUCUCAUAGACCUCCUUAUAAAACACAUAUAGACUGGAUUAUGGAAUUCUCGGGUGCCAA; value = 1.26
Oligonucleotide = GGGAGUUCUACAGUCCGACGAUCGCCCCUUCCCCAUGAACCCUGCCCUGCUCUGCCCAGGCAAGGAACAGAAGUGAGGAUGAGACCCAGCCCCUUCCCCUGGGAACUCUCCUGGCCUUCUAGGAAUGGAGGAGUGGAAUUCUCGGGUGCCAA; value = 0.644
Oligonucleotide = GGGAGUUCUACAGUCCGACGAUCGUUCAUUAUUGAUGUUUUUAUAGUGAUCCAGCCACUCUAGCUUUAAGAAUAGCUAGGUUGUAUUAAAACAUGUAAGCUACUUUAAGUGAUAAAUCAAUAGCUAAAGUUUUUGGAAUUCUCGGGUGCCAA; value = 0.526

Some of these lines once more (block 6):
Oligonucleotide = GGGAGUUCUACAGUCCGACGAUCCCAUUCAUUGGCUAAUCCAUACAGCAAAUAUUUGAGUGUUUGUGAUAUGGCAGUAAAAAUGUGAUUACUUUGUAUGUACAUUAACCAAAACCAGUGAAGUUUGAUGGACUUGGAAUUCUCGGGUGCCAA; value = 0.294
Oligonucleotide = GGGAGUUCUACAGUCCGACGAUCUGUAACAUUGGCCUUUUCAUGGCUCCACACUGGGUGGAACCAUAUUCUCUUAGAUCACAUUUAGUAGCAUAACUGUAGGGACUAUUAGAGAUGGCAUCUCAUCGAUGAGAUGGAAUUCUCGGGUGCCAA; value = 0.433
Oligonucleotide = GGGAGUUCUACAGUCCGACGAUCGUUCAUUAUUGAUGUUUUUAUAGUGAUCCAGCCACUCUAGCUUUAAGAAUAGCUAGGUUGUAUUAAAACAUGUAAGCUACUUUAAGUGAUAAAUCAAUAGCUAAAGUUUUUGGAAUUCUCGGGUGCCAA; value = 0.526
Oligonucleotide = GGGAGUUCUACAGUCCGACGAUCGUUUGGGGCAGUGGGGAGCAAACCUAGAUAAGGACCUGUUUGGGGCAGCAGGGAGCAAAAUCUCCUUUAACAACCAAGCAGUUCCUCAUUCACAUCAACAGAGCGAGGCUUGGAAUUCUCGGGUGCCAA; value = 0.245
Oligonucleotide = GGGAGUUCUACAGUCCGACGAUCUACAACUUCAAGUGCAUGCUCUCUGCAGCCAGCCCAGCCCAGCUGGUGGGAAGCGUCUGUCCGUUUACUCCAAGGUGGGGUCUUUGUGAGAGUGAGCUGUAGGUGUGCGGUGGAAUUCUCGGGUGCCAA; value = 7.03
Oligonucleotide = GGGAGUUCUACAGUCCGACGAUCUUCCUCUUCCUUCUCUACUCAUGCCAGAUUUUGGGAUUACAAAUAGAAGCUUCUUGCUCCUGUUUAACUCCCUAGUUACCCACCCUAAUUUGCCCUUCAGGACCCUUCUAUGGAAUUCUCGGGUGCCAA; value = 0.778
Oligonucleotide = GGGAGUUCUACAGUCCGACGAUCCUAGAAUGUAAAUGAAGCUUGCUUGGAAGGGGAAAACUUUAAAUAAAACUUUAUGUAUAAAUUCAACGUCUCUCAUAGACCUCCUUAUAAAACACAUAUAGACUGGAUUAUGGAAUUCUCGGGUGCCAA; value = 1.26
Oligonucleotide = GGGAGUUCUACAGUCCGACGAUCGCCCCUUCCCCAUGAACCCUGCCCUGCUCUGCCCAGGCAAGGAACAGAAGUGAGGAUGAGACCCAGCCCCUUCCCCUGGGAACUCUCCUGGCCUUCUAGGAAUGGAGGAGUGGAAUUCUCGGGUGCCAA; value = 0.644
